Assay results collected from several papers.
Parts stem from different laboratories: compare values within a part only. Changes are numbered by the printed parent chain.

Series 1 — technique: RNA Bind-n-Seq; molecule type: RNA; sample: in vitro; concentration: not given; baseline: input RNA pool; reading: higher = stronger binding
Target: RING finger protein unkempt homolog, zinc fingers 1-6, GST-SBP tag (UNK, Homo sapiens, UniProt Q9C0B0, residues 30-357)
Setting: RNA with constant flanks, human and mouse sites, ends assumed
`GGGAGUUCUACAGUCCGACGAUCUUAUAAGCGGCGUCUUCGAACGCGCCGCGGCAGCCAUGUUGAUCGUGGCUAGCACAGGGGCCGGCACCAGCGGGUUUUAGAAGCAGGUGUCAUGAUGUUGUCCGCGGUGUUGAGGAGAACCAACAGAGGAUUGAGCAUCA` gave a bound/input enrichment of 0.357 ratio.
For `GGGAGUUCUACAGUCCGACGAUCUUAAAUUUUCCAUUAAUUUCAACAUAAUUAUGGGAACAAGUGUACAGAAGAAUUUUUUUUUUAAGAUAUGUGAGAACUUUUCAUAGAUGAACUUUUUAACAAAUGUUUUCAUUUACAGGACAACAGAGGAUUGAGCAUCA`, the bound/input enrichment was 1.19 ratio.
With `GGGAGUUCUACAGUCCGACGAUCAGCACAUGGUUUGGGACUUGCACGUUCUGCCAUGGAGGAGUCUUCAGUGACAGUUGGCACAAUAGACGUUUCUUAUCUGCCCAGUUCAUCGGAAUACAGCCUUGGCCGAUGUAAACACACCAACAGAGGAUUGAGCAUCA` the bound/input enrichment was 0.224 ratio.
The bound/input enrichment of `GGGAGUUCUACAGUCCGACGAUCGUUCAGCUUCACCAGAUGGCUGUGAUAGGGCAGCAAGCUGGGAGCAGCAGCAACCUCACCGAGCUACAGGUGGUGAACCUGGAUGCCACCCACAGCACCAAGAGUGAAUGAUCCGCCCGUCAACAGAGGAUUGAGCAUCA` is reported as 0.129 ratio.
With `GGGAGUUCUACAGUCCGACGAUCACUCAAGUAACAACACAACCAAAGUUAGGAGAGGUACAGCAGAAGUGUCAUCAAUUCUGUGGCUGGGAAGGGUCUGGAUUCCCUGGAGCACAGCCUGUUUCCAUGGACAAGCAAAAUAUUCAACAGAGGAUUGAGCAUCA` the bound/input enrichment was 0.26 ratio.
`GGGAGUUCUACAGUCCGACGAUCAAACUCAUCCUUAAAGGGGUCAUACUGCUGAUUGUGGACAAAGCCCUAGAAGAGCCAAAGUAUAGCUCACUGUAUGCUCAGCUAUGUCUGCGAUUGGCAGAAGAUGCACCAAACUUUGAUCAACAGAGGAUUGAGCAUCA` gave a bound/input enrichment of 0.147 ratio.
`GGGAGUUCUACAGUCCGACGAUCCCAAGUCGCUGGGACUUAACACCUCCCCCCCCCCCCAGCAGGGAGUUGGCAAGAAUUUGGCUCCCGUAUUCUGCUGCAAUCCUCUACUGUCCCGGUGUGCCAGCCUUCCACCAUGACUGACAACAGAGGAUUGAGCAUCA` gave a bound/input enrichment of 0.661 ratio.
For `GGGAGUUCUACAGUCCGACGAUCUCAGUGGGAAGCAAUGGGCUUCUGGACUUUGAUUCAGAAUAUCAGGAGCUCUGGGAUUGGCUGAUUGACAUGGAGUCCCUUGUGAUGGACAGCCACGACCUGAUGAUGUCAGAGGAGCAGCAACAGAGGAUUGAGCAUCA`, the bound/input enrichment was 0.17 ratio.
For `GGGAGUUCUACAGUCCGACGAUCGAUACCAACUAUGCCUGGCCCACCGCAGAGAUUGCAGUCAUGGGAGCAAAGGGCGCUGUGGAGAUCAUCUUCAAAGGGCAUGAGAAUGUGGAAGCUGCUCAGGCAGAGUACAUCGAGAAGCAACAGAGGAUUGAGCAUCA`, the bound/input enrichment was 0.128 ratio.
With `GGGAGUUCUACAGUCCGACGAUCACGGCCAUGGCAACUAGUCUCACGAAUGUAGGAAACUCAUUUAGUGGUCCAGCUAAUCCUUUAGUGUCUAGAUCUAAUAAGUUUCAGAACUCGUCAGUGGAAGAUGAUGAUGAUGUUGUUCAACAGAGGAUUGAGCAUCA` the bound/input enrichment was 10.3 ratio.
`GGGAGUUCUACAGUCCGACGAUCCGUAUUCCGAGCUCUCUGGAAAGAGAGGAAACUCCAGGGAAGAUGUGGCUGAAGCUUUUUUUCUUGCUCCUCUAUUUCCUGGUCCUGUUCGUCCUGGCCAGGUUUUUUGAGGCCAUUGUGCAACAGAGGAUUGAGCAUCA` has a bound/input enrichment of 0.125 ratio.

Series 2 — target: CEBPE, bZIP domain (human); technique: DHFR protein complementation; sample: yeast; baseline: wild-type JUN-FOS pair; reading: higher = stronger binding
Setting: single substitutions, most at no-binding floor
Starting sequence: JUN, bZIP domain (human); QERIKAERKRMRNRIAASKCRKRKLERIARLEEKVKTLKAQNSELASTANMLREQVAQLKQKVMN; partner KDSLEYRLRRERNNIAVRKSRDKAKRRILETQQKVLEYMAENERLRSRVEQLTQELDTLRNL
The binding fitness of `V56K` is reported as -1.47 natural log.
For `A29S`, the binding fitness was -1.15 natural log.
For `R53V`, the binding fitness was -1.09 natural log.
The binding fitness of `A57N` is reported as -0.984 natural log.
For `K39L`, the binding fitness was -1.26 natural log.
With `R53C` the binding fitness was -1.21 natural log.
With `K34G` the binding fitness was -1.37 natural log.
`S47Y` gave a binding fitness of -1.14 natural log.
For `S43K`, the binding fitness was -0.934 natural log.
`L45C` has a binding fitness of -1.47 natural log.
For `A40E`, the binding fitness was -1.17 natural log.
`L59W` gave a binding fitness of -0.973 natural log.
The binding fitness of `I28F` is reported as -1.27 natural log.

Series 3 — target: CCNB1, cyclin fold, Cln2 fusion (human); technique: yeast growth competition, sequencing; sample: yeast; setting: weak parent motif; baseline: not given; reading: higher = stronger binding
Starting sequence: CDAN1 docking peptide (human); RGARSQLFPPTEA
`RGARSQLFPPTAA [E12A]`: “normalised enrichment score” 0.283.
Under “normalised enrichment score”, `RGARAQLFPPTEA [S5A]` is recorded as 0.401.
For `RGARSQLFPATEA [P10A]`, “normalised enrichment score” read 0.385.
For `AGARSQLFPPTEA [R1A]`, “normalised enrichment score” read 0.0609.
Under “normalised enrichment score”, `RGARSQAFPPTEA [L7A]` is recorded as -0.0111.

Series 4 — technique: RNA Bind-n-Seq; molecule type: RNA; sample: in vitro; concentration: 365 nM; baseline: no-protein control; reading: higher = stronger binding
Target: RNA binding protein fox-1 homolog 2, RRM domain, GST-SBP tag (RBFOX2, Homo sapiens, UniProt O43251-10, residues 100-194)
Setting: natural RNA segment, single round, ends assumed
Target sequence (chain): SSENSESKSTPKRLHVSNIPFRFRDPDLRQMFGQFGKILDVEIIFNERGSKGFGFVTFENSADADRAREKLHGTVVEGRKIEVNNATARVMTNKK
For `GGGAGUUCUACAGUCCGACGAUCAUCAGUGCAUGACGUUUAAGGCCACGUAUAGUCCUAGCUGACGCCAAUAAUAAAAAACAAGAAACCAAGUGGGCUGGUAUUCUCUCUAUGCAAAAUGUCUGUUUUAGUUGUGGAAUUCUCGGGUGCCAA`, “RBNS enrichment (R)” read 0.993.
Under “RBNS enrichment (R)”, `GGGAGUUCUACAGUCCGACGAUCACGGUCGUAUUUUCCUCCCUACCCGCCAAGUCAUCCUUUCUACUGCUUUUGAGGCCCUCCCUCAGCUCUCUGUGGGUAGGGGUUACAAUUCACAUUCCUUAUUCUGAGAAUGGAAUUCUCGGGUGCCAA` is recorded as 0.291.
For `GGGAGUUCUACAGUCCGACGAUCUGCCUCUGUUACUGUUUGUAUUGAAUAAAAACAUCUUCAUGUGGGCUGGGGUAGAAACUGGUGUCUGCUCUGGUGUGAUCUGAAAAGGCGUCUUCACUGCUUUAUCUCAUUGGAAUUCUCGGGUGCCAA`, “RBNS enrichment (R)” read 0.728.
`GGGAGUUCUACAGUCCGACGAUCUUCAAACCAGAAGACAUUUGUGGAUAAAUCUGAACUCACUUCCUGUGUGUAACUUCUAACUUCACUGGUUCCUCCCAUCUGAAUUGGCCACAUGCUUGCUGAAGAGACUUUGGAAUUCUCGGGUGCCAA`: “RBNS enrichment (R)” 0.676.
Under “RBNS enrichment (R)”, `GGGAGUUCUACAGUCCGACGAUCUUGGGCACUUGCCUUGAUUCCUUUUAUUAUUGGAAGUCAGAUACCCCCUCUCCAAAGUGAGCAGGCAGGUUUUAAACAGCUUAACUACUGACCAGUUAUAAGACUCGCUUUGGAAUUCUCGGGUGCCAA` is recorded as 0.707.
`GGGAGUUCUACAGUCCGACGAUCCCAGUGAUGUUUCCACGGUGCCUGUACACAGCCGAGCAGCAUUUCCGUUGAAGGACUUGCAUCCCCAUUGCGGGCAGUGCUGGACGUGUCCCGGAGACCCACCGGGAGGGUGGAAUUCUCGGGUGCCAA`: “RBNS enrichment (R)” 0.687.
For `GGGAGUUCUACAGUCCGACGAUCCCCCAUUUUACCAGAACCAAACCUCAACACAGCGAAGCUGUACUGUCUUUGUGUGGCAAAGAUGUUCCCUUGUAGGCCCCUUUCAGGUAACCGUCUUCACAAUGUAUUUUUGGAAUUCUCGGGUGCCAA`, “RBNS enrichment (R)” read 0.3.
Under “RBNS enrichment (R)”, `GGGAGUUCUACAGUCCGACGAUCAGAGCAGUGGGGGCUGCCCUCUGUAGAGCUGUGAGGGAGAGGCUUUCUGAUCAGAUGAACAUCUGUCCAAGCCAAAAUUCUGCAGAGGGCAGGUGAGCUUUGCUUAUGUAUGGAAUUCUCGGGUGCCAA` is recorded as 0.961.
Under “RBNS enrichment (R)”, `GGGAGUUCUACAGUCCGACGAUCCUUGUUGCCUGAGAAGAAACCUUGGGGUGCCAGGGUGGGGGCAGAAGCAUGGGCUGGGUUCCGGUUCAUCCUCCUCCACCCUGCCGUGUGUGUGGGCACAAGAGGACAUCUGGAAUUCUCGGGUGCCAA` is recorded as 1.3.
`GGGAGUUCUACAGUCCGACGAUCGCACUCAAAACCAACAAAGAGAAUGAGCAAUCAUCUUAAAGAUGGAACCUCUUAAAGGACAACUUUGAUUUCCUUCUUCGUGUGAAGAUGCUGGAUAGUACCCAAAUCACUGGAAUUCUCGGGUGCCAA`: “RBNS enrichment (R)” 0.363.
Under “RBNS enrichment (R)”, `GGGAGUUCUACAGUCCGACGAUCAGAAGAACAUUCUUUUCAAUGGAGCUCAUCUUCUAUCUCUAGGGUCUGUUCAGCCUUUCAUCUAUCCAUCCUUCCUCUUUAUUGGUAGAAGAAACAGUGGAGAGUAGCCAUGGAAUUCUCGGGUGCCAA` is recorded as 0.285.
`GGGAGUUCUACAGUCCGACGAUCUAAAGGCCAAUCAAUGCACUGUCUGUCUCUCCUUUUAGGAGUAAGCCAUCCCACAAGUUCUAUACCAUAUUUUUAGUGACAGUUGAGGUUGUAGAUACACUUUAUAACAUUGGAAUUCUCGGGUGCCAA` — result for “RBNS enrichment (R)”: 0.441.

Series 5 — technique: DHFR PCA, deep sequencing; sample: yeast; with: (+)-ABA 0.0091 µM; baseline: wild-type fitted maximum; reading: higher = stronger binding
Target: ABI1, truncated, D143A, DHFR fusion (Arabidopsis thaliana)
Setting: methotrexate growth selection, single substitutions
Starting sequence: PYL1, truncated, DHFR fusion (Arabidopsis thaliana); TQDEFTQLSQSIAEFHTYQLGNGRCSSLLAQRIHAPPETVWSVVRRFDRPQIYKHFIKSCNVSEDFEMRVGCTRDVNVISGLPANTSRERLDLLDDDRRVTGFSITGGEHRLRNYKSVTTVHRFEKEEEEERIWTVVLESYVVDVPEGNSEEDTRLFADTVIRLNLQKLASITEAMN
`V100T` — result for “relative binding score”: -6.68%.
For `K54E`, “relative binding score” read -9.56%.
Under “relative binding score”, `A13F` is recorded as 1.86%.
Under “relative binding score”, `T39C` is recorded as 14.3%.
`P37V`: “relative binding score” 10.6%.
Under “relative binding score”, `T119H` is recorded as -2.57%.
For `R113Q`, “relative binding score” read 43.5%.
Under “relative binding score”, `G21C` is recorded as 15.9%.
`Q51R` — result for “relative binding score”: 4.48%.
For `V43Y`, “relative binding score” read -0.923%.

Series 6 — Sequence: B1 (TRIM48 RING domain); technique: yeast two-hybrid; sample: yeast; setting: mostly zero background; baseline: not given; reading: higher = stronger interaction
B1: TRIM48 RING domain (UniProt Q8IWZ4); chain ISQVFQRELTCPICMNYFIDPVTIDCGHSFCRPCFYLNWQDIPILTQCFECIKTIQQRNLKT
For UBE2C UBC core domain (UniProt O00762): “lacZ reporter activity” read 0.
UBE2I UBC core domain (UniProt P63279) — “lacZ reporter activity”: 0.
It gave 0 for “lacZ reporter activity” (UBE2S UBC core domain (UniProt Q16763)).
UBE2O UBC core domain (UniProt Q9C0C9) — “lacZ reporter activity”: 0.
For UBE2J1 UBC core domain (UniProt Q9Y385): “lacZ reporter activity” read 0.
The “lacZ reporter activity” was 0 (UBE2J2 UBC core domain (UniProt Q8N2K1)).
For UBE2Z UBC core domain (UniProt Q9H832): “lacZ reporter activity” read 0.
It gave 0 for “lacZ reporter activity” (UBE2B UBC core domain (UniProt P63146)).

Excerpt of the above (series 2):
The binding fitness of `V56K` is reported as -1.47 natural log.
`L59W` gave a binding fitness of -0.973 natural log.
The binding fitness of `I28F` is reported as -1.27 natural log.
For `A29S`, the binding fitness was -1.15 natural log.
`L45C` has a binding fitness of -1.47 natural log.
